# Measurements collected from several papers.
# Protocols differ between the studies behind these lines. ± marks the error that the study gave.
# Organism: Salmonella typhimurium
SMILES,assay,test system,setting,how to read,quantity,value
O=[N+]([O-])c1ccc(NC2CCNCC2)c(C(F)(F)F)c1,"SOS response, SOS/umu test","TA1535/pSK1002, TGA medium","1 mg/mL, 4 h, together with: 10% rat liver S9",relative to: untreated,induction factor,1.6
Nc1ccc2cc3ccccc3cc2c1,"Ames test, confirmatory",TA1535,"1.0 µg/plate, together with: rat liver S9",relative to: solvent control,revertant ratio,5.2
Fc1ccc(C2=CCNCC2)cc1,"genotoxicity, SOS/umu test",TA1535/pSK1002,"0.016 mg/mL, 4 h, without S9, full range",,induction factor,0.9
Nc1c2ccccc2nc2ccccc12,plate incorporation Ames test,TA1537,100 µg per plate,,revertant colonies per plate,1540
O=C(O)CCCOc1ccc(F)cc1-c1cc(-c2ccccc2C(F)(F)F)n(-c2ccccc2)n1,Ames test,TA1537,"concentration not given, without S9 metabolic activation",,growth-inhibiting concentration,≥ 625 µg/plate
CC(=O)N1CCC(C(=O)N2CCN3C(=O)c4cc(-c5ccccc5)ccc4NC(=O)C3C2)CC1 (centres unmarked),,TA1537,"5.0 µg/plate, together with: rat liver S9",relative to: vehicle,fold increase in revertants,1.6
Cc1cc(C(=O)NC(C)(C)COc2cccc3c2C(N)=NS(=O)(=O)N3)cc(C)n1,"Ames test, initial",TA98,50.0 µg/plate,relative to: solvent control,revertant ratio,1.1
OC(CCN1CC=C(c2ccc(F)cc2)CC1)c1ccc(F)c2ccccc12 (centres unmarked),"genotoxicity, SOS/umu test",TA1535/pSK1002,"0.25 mg/mL, 4 h, with S9, lower range",,induction factor,0.3
COc1cccc(-c2n[nH]c(SCc3ccccn3)n2)c1OC,"Ames test, preincubation",TA98,"0.50 mg/plate, without S9",,revertant colonies per plate,21
CNC(=O)c1c(N(C)N=O)ncn1C,plate incorporation,"TA1537, water","150 µg/plate, without S9",,revertant colonies per plate,12.3 ± 3
Nc1ccc2cc3ccccc3cc2c1,,TA1535,"5 µg/plate, together with: rat liver S9",relative to: vehicle control,revertant fold increase,25.4
COCCN(CCOC)N=O,"mutagenicity, Ames plate incorporation",TA98,"5000 µg/plate, 3 d, without S9, methanol",,revertant colonies per plate,20 ± 6
O=[N+]([O-])c1ccc(N2CCC(NCCC(O)c3ccc(F)c4ccccc34)CC2)c(C(F)(F)F)c1 (centres unmarked),"SOS response, SOS/umu test",TA1535/pSK1002,"0.001 mg/mL, 4 h, without S9 activation",,umu induction factor,0.35
O=[N+]([O-])c1ccc2c(c1)Cc1ccccc1-2,"Ames test, confirmatory",TA98,1.0 µg/plate,relative to: solvent control,revertant ratio,6.9
Nc1ncnc2c1c(Oc1cc(C(F)(F)F)ccn1)nn2C1CC1,mini Ames test,TA98 and TA100,"concentration not given, with and without S9, negative",,mutagenicity,negative
CC(C)N(N=O)C(C)C,"mutagenicity, Ames plate incorporation",TA100,"150 µg/plate, without S9, methanol",,revertant colonies per plate,163 ± 27
O=[N+]([O-])c1ccc(N2CCN(CCC(O)c3ccc(F)cc3)CC2)c(C(F)(F)F)c1 (centres unmarked),"SOS response, SOS/umu test","TA1535/pSK1002, TGA medium","0.001 mg/mL, 4 h, together with: rat liver S9",relative to: untreated,induction factor,1.3
